Measurements gathered from unrelated publications.
Each numbered part is a random draw from the data of one study; scales do not carry over between parts. Changes are numbered by the printed parent chain.

Series 1 — technique: RNA Bind-n-Seq; form: RNA; matrix: in vitro; tested at: 365 nM; reference: no-protein control; reading: higher = stronger binding
Target: RNA binding protein fox-1 homolog 2, RRM domain, GST-SBP tag (RBFOX2, Homo sapiens, UniProt O43251-10, residues 100-194)
Notes: natural RNA segment, single round, ends assumed
All sequences stand within: GGGAGUUCUACAGUCCGACGAUC … UGGAAUUCUCGGGUGCCAA
Target sequence (chain): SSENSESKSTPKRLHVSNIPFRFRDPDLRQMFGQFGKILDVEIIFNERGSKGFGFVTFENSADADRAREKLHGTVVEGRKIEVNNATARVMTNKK
Strand	RBNS enrichment (R)
GCGAUAGUCCUGGGUGCUCCACUGAUUGGAGGAUAGAGCCAGCUGUCUGACACACAAAUGGUCUUUUCAGCCACAGUCUUAUCAAGUAUCCUAUAUGUAUUCCUUUCUAA	0.284
CGGAACUCUCGUGACAUAGGGUCCAACUCUGGCUGCUGCUGAACAUCUGGCUUGAACUUUUUUUGUCCUUCCUGGAAUAGCUUCAGAUCAAUAGGCUUAAUGAAAGAGGU	0.27
AUUCACACAGGCAAGGGUUGACUGGCCAAGCUGGCACCAUGUGCUUGUGCAGCUCUGGAUCUCUGAGCCUCCCCUGACUAACCUUGAGUAGGAACAUGCUGAUGGGACAC	0.316
CUGGUCCGCAUAUAUAAAGGUCACCAGGAAGCACAGUCAUAAACCUGGUCCCCCACCUAUCAGCACCAACUCUCAGUUCAUCAGGGUUGAGAAAGGACACUGGAUUGAGC	0.592
UUUUGGGGGUCUUUAGACUCUUGAAGGCAACUCAGGGUAUUGUCCACGCAGCUCUCUGGUUAGACUUCUCCCAGGCUAUGAUCCUGGCAUGUCCUUUAUAAGGUAUACUU	0.325
AGCCUUGCUGAACUAAGUUUUGUGUGUAUAUAUUUAAAGAUCAGUGUUUAAAUAAAAAAAAAAAAAAAACCAACUAUGUACUUACUCUGACUUCUGCGGACAGCAAUUUG	5.15
UCUACUGUUUUAAUGAGAUUUAACAGCUUUUAACAGUGAGUUUCGUUUGUAAACUGCUUGAAGUCUGUGGCAUUCAGGCACACGUCUGGCUGGCCGGCUGGGUCUCCUCC	0.277
GCAAUAAAAAUGAACCAAAGGAUAUUUCCAGAAAGGAUUAAGAAAGCUGUUUAAGAAGGCCAUGACUCUUUAGGUGUGUAUGUGUACCUUUCAGCAUCCUAGGAAUUUUU	0.492
CAAAAUGGCAUCUUUCCUCCCAAACUGGGAGCCAAAUUCUGCAGAAAUCAUGGACAGUAAAUGGUGACAGAUGUCUGAAGGGGUCUCAAAGAUGCAAGGGAACAUGGGGU	0.571

Series 2 — technique: protein-binding microarray; form: double-stranded DNA, one strand shown; matrix: in vitro; tested at: 2200 nM top; notes: 60-bp whole probe; added: salmon DNA 0.4 mg/ml; reference: random background probes; reading: higher = stronger binding; all sequences stand within: GCCTAGCAC … GTCTTGATTCGCTTGACGCTGCTG
Target: Interferon regulatory factor 7, full length, phosphomimetic (IRF7, Homo sapiens, UniProt Q92985, residues 1-503, S471D/S472D/S475D/S476D/S477D/S483D/S484D/S487D)
Construct (chain): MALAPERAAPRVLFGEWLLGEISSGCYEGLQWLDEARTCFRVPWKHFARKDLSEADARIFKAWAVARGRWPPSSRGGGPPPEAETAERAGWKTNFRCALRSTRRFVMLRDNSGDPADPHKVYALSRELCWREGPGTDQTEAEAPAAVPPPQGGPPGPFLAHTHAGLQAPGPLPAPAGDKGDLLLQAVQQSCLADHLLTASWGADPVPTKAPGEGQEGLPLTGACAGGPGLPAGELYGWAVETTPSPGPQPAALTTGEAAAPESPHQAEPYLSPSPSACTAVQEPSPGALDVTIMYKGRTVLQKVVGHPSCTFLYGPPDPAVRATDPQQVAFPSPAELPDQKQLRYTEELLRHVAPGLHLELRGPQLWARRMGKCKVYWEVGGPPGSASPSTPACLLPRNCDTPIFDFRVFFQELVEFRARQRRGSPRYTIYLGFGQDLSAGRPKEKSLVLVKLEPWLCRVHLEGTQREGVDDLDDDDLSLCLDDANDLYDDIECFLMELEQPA
Strand	fitted relative affinity [z-score]
GACGGCATCGGACTGGGGACGTGCTAG	-0.905
TTACATATCAGTTTCGATTAGTGCTAG	6.71
GACTATTTCAGTTCCGAGACGTGCTAG	1.71
TGAGATTTCAGTCTCGATTAGTGCTAG	0.266
GACGATATCAGTATCGAGGCGTGCTAG	0.38
TCACACCTCTAGACTCTAACTGTGCTA	0.906
GACGAACTGAGACTGGAGAGGTGCTAG	-0.524
TCAGCTGTTTTTCTCACCACGTGCTAG	1.17
GGACAGTAATGGAGGTATAAGTGCTAG	-0.682
AGGGGACTGACTCTTCAGCACGTGCTA	-0.648
GAAGGTTTCCTACTGCTGACGTGCTAG	1.11

Series 3 — target: CCNE1, cyclin fold, Cln2 fusion (human); technique: yeast growth competition, sequencing; matrix: yeast; notes: strong parent motif; reference: not given; reading: higher = stronger binding
Parent: RBL1 docking peptide (human); GSAKRRLFGEDPP; partner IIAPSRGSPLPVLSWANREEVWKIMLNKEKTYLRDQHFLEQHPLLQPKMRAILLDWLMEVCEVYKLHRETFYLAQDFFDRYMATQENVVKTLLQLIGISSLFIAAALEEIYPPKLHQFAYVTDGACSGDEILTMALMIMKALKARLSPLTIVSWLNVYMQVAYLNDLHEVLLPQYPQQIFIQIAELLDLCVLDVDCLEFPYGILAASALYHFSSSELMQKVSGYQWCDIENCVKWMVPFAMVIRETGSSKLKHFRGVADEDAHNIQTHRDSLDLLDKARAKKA
Substitution	normalised enrichment score
P12H	6.11
E10P	6.56
R6C	2.95
A3Y	5.29
A3I	2.29
A3N	-0.156
R6V	5.09
L7M	0.999
G9A	7.89

Mixed results
Substance	target	assay	system	conditions	how to read	measurement	result
PhoQ, residues 284 288 289 292 302 303 AGCYAI	PhoP, residues 12 14 15 18 19 HEGLL (Escherichia coli, UniProt P23836)	Sort-seq, item: YFP reporter	E. coli	PhoQ-PhoP variant library, added: 10 µM Mg2+	reference: high Mg2+ state, higher = stronger signaling	fold induction	6.65

Repeated from above (series 3):
Substitution	normalised enrichment score
P12H	6.11
E10P	6.56
R6C	2.95
